{"data": "Assay results gathered from unrelated publications", "note": "Every numbered part comes from another study and shows a few of its results, in no order."}
{"data": "Series 1", "target": "PABPC1L2, full length, GST fusion (mouse, UniProt A0ABA7IW68)", "method": "RNAcompete", "molecule type": "RNA", "medium": "in vitro", "tested at": "20 nM", "setting": "7-mer, probes averaged, single round", "reference": "mean of 7-mers", "direction": "higher = stronger binding", "Target sequence (chain)": "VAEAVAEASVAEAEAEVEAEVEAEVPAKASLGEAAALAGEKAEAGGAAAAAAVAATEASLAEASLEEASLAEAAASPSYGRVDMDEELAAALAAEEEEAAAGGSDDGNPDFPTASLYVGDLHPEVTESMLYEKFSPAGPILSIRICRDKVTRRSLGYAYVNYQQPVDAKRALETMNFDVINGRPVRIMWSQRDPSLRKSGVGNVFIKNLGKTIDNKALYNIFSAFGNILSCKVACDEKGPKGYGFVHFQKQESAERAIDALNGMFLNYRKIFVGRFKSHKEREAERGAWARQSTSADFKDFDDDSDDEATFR"}
{"Strand": "GGCCGUA", "7-mer Z-score": -0.0391}
{"Strand": "UCUCGAU", "7-mer Z-score": -0.316}
{"Strand": "GCGCAUG", "7-mer Z-score": -0.209}
{"Strand": "CUGGGAU", "7-mer Z-score": 0.0189}
{"data": "Series 2", "target": "Interferon regulatory factor 5, full length, phosphomimetic (IRF5, Homo sapiens, UniProt Q13568-2, residues 1-514, K96S/S451D/S453D/S456D/S462D)", "method": "protein-binding microarray", "molecule type": "double-stranded DNA, one strand shown", "medium": "in vitro", "tested at": "250 nM", "setting": "60-bp whole probe", "with": "salmon DNA 0.4 mg/ml", "reference": "random background probes", "direction": "higher = stronger binding", "shared flanks, not repeated": "GCCTAGCAC … GTCTTGATTCGCTTGACGCTGCTG"}
{"Strand": "TCAGGTATCGGGTTTCGGTTAGTGCTA", "log fluorescence [z-score]": 8.14}
{"Strand": "TTAGGTTCCGGTTTCAGTTAGTGCTAG", "log fluorescence [z-score]": 5.23}
{"Strand": "TCAACTTTCCAAAACATACTGTGCTAG", "log fluorescence [z-score]": 0.843}
{"Strand": "AAGCAAGGTGGAGAAGAGAAGTGCTAG", "log fluorescence [z-score]": -0.474}
{"Strand": "TCAGATTTTGCTTTCATACTGTGCTAG", "log fluorescence [z-score]": 2.7}
{"data": "Series 3", "target": "RNA binding protein fox-1 homolog 2, RRM domain, GST-SBP tag (RBFOX2, Homo sapiens, UniProt O43251-10, residues 100-194)", "method": "RNA Bind-n-Seq", "molecule type": "RNA", "medium": "in vitro", "tested at": "365 nM", "setting": "natural RNA segment, single round, ends assumed", "reference": "no-protein control", "direction": "higher = stronger binding"}
{"Strand": "GGGAGUUCUACAGUCCGACGAUCGUAGUCUGACACUGGAGUCCCCAACCCACCCCAUUCCUGCCCUCAUCCUCAGCCCAUCAUUUGUGAACACUGGACUCUGAAAUAAAUGCUGCCUGUCACGUGGACACUUUUGGAAUUCUCGGGUGCCAA", "RBNS enrichment (R)": 0.445}
{"Strand": "GGGAGUUCUACAGUCCGACGAUCUCCAGCCUGGUGACAGAGCAAGACUCCAUCUCAAAAAAAAUCUAAGCAAACUAUCUUUGAGUCAAAAAAAGUUGGAUAACUCAUCUAUAUUUGAAAUAAUGCUGUCUGAAUGGAAUUCUCGGGUGCCAA", "RBNS enrichment (R)": 0.646}
{"Strand": "GGGAGUUCUACAGUCCGACGAUCGGCAGUAUUGCUCCUACCACUGCUGCUGCUGCAAUCUCAGUGAGGGUGUACGCUUGCCCUGGCUUAUGGAUUGGAAUGGGACUAAGGGGCAGCCCCAGCCCUGGGAACCUUGGAAUUCUCGGGUGCCAA", "RBNS enrichment (R)": 0.649}
{"Strand": "GGGAGUUCUACAGUCCGACGAUCAACUUGUUCAAAAGAACAUCAACGUGCAAUGUUUUAAGGUCUAUCUUAAGAAGCCCUGGCCAAAUUUUGAUCCUAACCUUGAAGUAUGCCUUGAACUUAUUAACAUGGCCUGGAAUUCUCGGGUGCCAA", "RBNS enrichment (R)": 0.519}
{"data": "Mixed results"}
{"Substance": "PhoQ, residues 284 288 289 292 302 303 AGCYAI", "target": "PhoP, residues 12 14 15 18 19 LWHVM (Escherichia coli, UniProt P23836)", "test": "Sort-seq, item: YFP reporter", "system": "E. coli", "setting": "PhoQ-PhoP variant library, with: 10 µM Mg2+", "scale": "reference: high Mg2+ state, higher = stronger signaling", "measurement": "fold induction", "value": 19.8}
{"note": "A few entries again (series 1):"}
{"Strand": "CUGGGAU", "7-mer Z-score": 0.0189}
{"Strand": "UCUCGAU", "7-mer Z-score": -0.316}
